Published values from different studies.
Parts stem from different laboratories: compare values within a part only. Changes are numbered by the printed parent chain.

Study 1 — target: TEF, bZIP domain (human); technique: DHFR protein complementation; sample: yeast; reference: wild-type JUN-FOS pair; reading: higher = stronger binding
Notes: single substitutions, most at no-binding floor
Parent: JUN, bZIP domain (human); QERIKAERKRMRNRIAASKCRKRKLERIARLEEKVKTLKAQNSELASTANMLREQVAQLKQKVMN; partner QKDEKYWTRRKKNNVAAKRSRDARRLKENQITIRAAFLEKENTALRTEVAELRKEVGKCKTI
Substitution | binding fitness
K39G | -1.4 natural log
R30N | -1.52 natural log
E32P | -1.52 natural log
S47H | -1.41 natural log
L45M | -1.26 natural log
N42K | -1.53 natural log
R53P | -1.57 natural log
V56R | -1.56 natural log
I28A | -1.41 natural log
A40H | -1.43 natural log
R30Q | -1.57 natural log
L31W | -1.5 natural log
V35F | -1.21 natural log
K39Y | -1.2 natural log
V56S | -1.5 natural log
E32T | -1.35 natural log
T37M | -1.49 natural log

Study 2 — technique: RNA Bind-n-Seq; molecule type: RNA; sample: in vitro; tested at: 200 nM; notes: whole 134-nt RNA, ends assumed; with: 150 mM KCl; reference: input library; reading: higher = stronger binding
Target: Ras GTPase-activating protein-binding protein 1, full length (G3BP1, Homo sapiens, UniProt Q13283)
UniProt Q13283, sequence (whole entry, looked up): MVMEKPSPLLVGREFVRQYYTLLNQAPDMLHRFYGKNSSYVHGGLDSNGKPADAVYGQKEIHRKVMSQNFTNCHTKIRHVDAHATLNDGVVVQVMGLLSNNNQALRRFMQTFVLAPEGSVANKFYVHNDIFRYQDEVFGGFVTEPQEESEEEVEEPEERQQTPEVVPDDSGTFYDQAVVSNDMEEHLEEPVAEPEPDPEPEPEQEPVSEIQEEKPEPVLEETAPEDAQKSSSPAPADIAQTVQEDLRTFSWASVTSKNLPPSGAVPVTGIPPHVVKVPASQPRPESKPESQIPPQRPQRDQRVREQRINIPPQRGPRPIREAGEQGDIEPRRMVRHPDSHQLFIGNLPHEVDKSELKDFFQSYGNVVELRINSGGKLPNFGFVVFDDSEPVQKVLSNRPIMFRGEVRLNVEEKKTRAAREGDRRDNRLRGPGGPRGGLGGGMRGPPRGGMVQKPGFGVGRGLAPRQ
Constant ends, left off below: GGGAGUUCUACAGUCCGACGAUC … UGGAAUUCUCGGGUGUCAAGG
Sequence | log2 enrichment
CCUCAAGUCCUGUGCUACACAUCGUAUGUACCGAAUCGGGAGGGGAGGAGGGAAAGUAUUAUGUUACGCCGUUCGGAUCUGCACUUCCAG | 1.07
UGGCCCUGGUGGCAUGCGGGGAGGAAGAGGUGGCCUCAUGGAUCGUGGUGGUCUCGGUGGAAUGUUCAGAGGUGGCCGUGGUGGAGACAG | 0.184
CUGUGCUACACAUCGUAUGUACCGAAUCGGCCCCCCCGGGGCCCCCCCGGGCCCCCCCGGGGAAAGUAUUAUGUUACGCCGUUCGGAUCU | -1.76
UGGCCCUGGUGGCAUGCGGGGAGGAAGAGGUGUCCUCAUGGAUCGUGGUGGUCCCGGUGGAAUGUUCAGAGGUGGCCGUGGUGGAGACAG | 0.103
AAGUCCUGUGCUACACAUCGUAUGUACCGAAUCGGUUUUUUUGGUUUUUGGAAAGGAAAGUAUUAUGUUACGCCGUUCGGAUCUGCACUU | -1.56
UCAAGUCCUGUGCUACACAUCGUAUGUACCGAAUCGGGAGGGUUUGGGAAAGGGAAAGUAUUAUGUUACGCCGUUCGGAUCUGCACUUCC | 1.04
UGGGCGGUGGAUUUUGUUUAUUUUUUUAGCUCAUUUCCAGGGGUGGGAAUUUUUUUUUAAUAUGUGUCAUGAAUAAAGUUGUUUUUGAAA | 0.394
ACCAUGCAGGUGAAAAUCUUUGGGAAGUGGGGCAAGGGGGGGAUAGGGAGGGGGGUAACACUUUGGGAACAGGUGGUCCCAGGUCGUUUC | 0.689
GUCCUGUGCUACACAUCGUAUGUACCGAAUCGGUUUUUUGGGUUUUUUGGGUUUUUUGGAAAGUAUUAUGUUACGCCGUUCGGAUCUGCA | -0.924
CACAGACAACACGCACCCACACAGACUCAGAGGGAAGGGGUUGGGAUGGGGACAGGGUGCACAGCAGGGCGGGGUAGGACCCCAGCCCCU | 2
AGUCCUGUGCUACACAUCGUAUGUACCGAAUCGGGGUUUUGGUUUUGGGGUUUUGGGGAAAGUAUUAUGUUACGCCGUUCGGAUCUGCAC | -0.187
UAACUUUAGAGGAGGAUCUGAUGGAUAGGGCAGUGGACGUGGAUUUGGGGAUGGCUAUAAUGGGUAUGGAGGAGGACCUGGAGGUGGCAA | 0.587
ACCAUGCAGGUGGGCAUCUUUGUGAAGUGGGGCAAGGGGGGGAUAGGGAGGGGGGUAACACUUUGGGAACAGGUGGUCCCAGGUCGUUUC | 1.36
ACCAUGCAGGUGGGCAUCUUUGGGAAGUGGGGUAAGGGGGGGAUAGGGAGGGGGGUAACACUUUGGGAACAGGUGGUCCCAGGUCGUUUC | 1.46

Study 3 — organism: Saccharomyces cerevisiae; effect on: cell growth; technique: competitive growth deep sequencing; molecule type: peptide; notes: peptide tiling library; with: cyclin F-Cln2 fusion; reading: direction not given
Molecule | enrichment score
ASVLSKPIFCFVKD | 0.145
QNPCGSKACRRLFGPV | 2.8
EHCRVLFLDHVMYTIH | 0.462
EPRNLLSLFEDTLDPT | 3.01
PHKTFRKLRLFDTPHT | -0.135
LENIEPLQVSFAVLSS | 0.689
NEGVSNAVRRSLYIRD | 0.671
ESSQLTVQAEFDMSAI | 0.558
DKYDEGLYRFNSLNDL | -0.0021
HPESPPRKRLKSKGSD | 5.27
NESHLDKEHDAVEVAD | 0.501
VKRLNFRSEEME | 1.55
GPVKLEFDVSDGAT | 1.48
SPPRGRRLFPPGPAGF | 2.84

Study 4 — technique: RNA Bind-n-Seq; molecule type: RNA; sample: in vitro; tested at: not given; reference: input RNA pool; reading: higher = stronger binding
Target: RING finger protein unkempt homolog, zinc fingers 1-6, GST-SBP tag (UNK, Homo sapiens, UniProt Q9C0B0, residues 30-357)
Notes: RNA with constant flanks, human and mouse sites, ends assumed
Constant ends, left off below: GGGAGUUCUACAGUCCGACGAUC … CAACAGAGGAUUGAGCAUCA
Residues (chain): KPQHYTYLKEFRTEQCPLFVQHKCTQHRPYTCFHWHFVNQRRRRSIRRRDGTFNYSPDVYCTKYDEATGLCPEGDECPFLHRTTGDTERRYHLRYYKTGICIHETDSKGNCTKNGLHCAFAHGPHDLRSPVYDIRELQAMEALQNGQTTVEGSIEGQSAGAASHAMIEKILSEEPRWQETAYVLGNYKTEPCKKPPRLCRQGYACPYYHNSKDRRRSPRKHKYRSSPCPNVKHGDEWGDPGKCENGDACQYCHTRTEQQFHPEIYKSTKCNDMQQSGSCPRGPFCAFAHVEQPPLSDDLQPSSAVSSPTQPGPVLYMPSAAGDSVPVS
Sequence | bound/input enrichment [ratio]
AUAAUGUGUGUGGCUGGUAUUGGACUUGUUGUAUUAUUCUUCAGUUGGAUGCUCUCUAUUUUUAGAUCUAAAUAUCAUGGCUACCCAUACAGCUUUCUGAUGAGUUAAAAAGGUCCCAGA | 0.375
CCUUAGGUAACCCUGGUCUGACUAACUAAAGACUUCCCCUCAUGUCACUCCUGGUGUAUAUAGGUCACUGCCAAGAAGUUCUGCUCCAUCAUUGGCCUUGCCCUUCUCUAUGUCACCAAG | 0.216
AUCAUGCAAACAGUGAAGGGAUUUUUUUAUGUUUCAUUACUUCUUGACAUUCUGAAAGAGAUAACUGGAAGUUCCUUGAUUCAGAAAACAGAUUCAGAUGAAGAAGUUGCAAUGCUGUUG | 0.144
CUGUACCAGAAAGACUUCCUGCGCAUCGCGGGCCUGUGUCAGGACACUGCUCAGAGCUACACGUUUGGGUGUGGCCAUGAACUGGAUGAGAGCGGUCUCUACUGCAACAGCUGCCUGGCU | 0.0995
AUUGUCAGAUUUUGUGCUUGAUUUUAAGAAUGGAAUUGUGGGUAUCUUUCCUUUUUUUUUAAUGUAUCUUAACUGUUGCCUGUCAGUGUUUACAAACUAGUGCGUUGACGGCACCGUGUC | 0.356
AUGGAUCCUCCAUCAAAGAAUUGUCUUUCUUUUAAUGUCAUUAGUCACCAAGGUUGCAUAAUUAGCAACCUUGUAGUAGCCUGUAGCACAGUGGGAUCUGCAUAUCUUCCGUCUAGUUAC | 2.82
ACAAUUGCUGUAAAACAAAGGUAAUUACUUAAGUGGUGGUGCAGGCCUUUAAUCCCAGCACUUAGAAGGCAGAGGAAGGUGGAUCUCUGAGAUCAAGGCCAGCCUGGUCUACACAGUGAG | 0.264
CUCAGGUGCUUGACCAAGUACUCCCAGAUCCCUAGUGUCCUGGUCAUGAACAAGGUAGAUUGUUUGAAGCAGAAGUCAGUUCUCCUGGAGCUCACGGCAGCCCUCACUGAAGGUGUGGUC | 0.43
UGCGUCACAUGGGAAAUAAAUCCUGAGGCCAGGAUCACCAGUGGGGUAGAGUCAUCUUCAUAGUCUCCUGUUAUCCUCCCCCUGAACAAAGAACAAAGUGAGACUGGGAAGCUAGUGUUG | 0.233
UCUUGACUUUAUUUCGUCAAUGUUGAGAAAAACUUUUUAUAUCUCAAAAUAUCGUUAGAAAAGGAAGUCCCAGCGCUCGGAGGCUUAGCUGACAAAGAAGGGGGUUGCGUGGCUGCGAGU | 0.458
CGGCCUGCUGGGAACGGGACUUCUAAAAGGAACUAUGUCUGGAAGGCUGUGGUCCAAGGCCAUUUUUGCUGGCUAUAAGCGGGGUCUCCGGAACCAAAGGGAGCACACAGCUCUUCUUAA | 0.104
